Published values pooled from the literature.
Numbered parts are unrelated; each lists some results of a single study.

Sample 1 — method: universal PBM; form: double-stranded DNA, one strand shown; sample: in vitro; concentration: not given; reading: higher = stronger binding
Target: Sal-like protein 4, full length isoform B (SALL4, Homo sapiens, UniProt Q9UJQ4-2, residues 1-616)
Notes: 8-mer, flanks averaged, mean of replicates
Strand	E-score
GAGCTAAA	-0.03
CCCCATTC	-0.132
CGTGGTTC	-0.217
CTATTGTA	0.344
ATACAGCA	0.219
CGTTGGGC	-0.291
CAAGGGCA	-0.184
AACTAGAC	0.104
ACGTCCAC	-0.0871
ACCCTGTG	-0.201
CTAATCTA	0.193
CGCCCTCC	-0.275
ATTAACAC	0.313
GACTAAGA	-0.0964
CCGCGCCC	-0.383
AAAACTAG	0.14
TCTACCCA	-0.0616
CCAACCGG	-0.397
ATCGTAGG	0.0129
CCTCGGAA	-0.132
CTATCTCC	-0.0525
ACCCTGCC	-0.276
AAAATTTT	0.342
AACGTTCA	-0.0359
GTTCAGAA	0.0493

Sample 2 — method: RNA Bind-n-Seq; form: RNA; sample: in vitro; concentration: 1 µM; notes: whole 134-nt RNA, ends assumed; with: 150 mM KCl; reference: input library; reading: higher = stronger binding
Target: Ras GTPase-activating protein-binding protein 1, C-terminal RGG region (G3BP1, Homo sapiens, UniProt Q13283)
Chain of UniProt Q13283 (whole entry, looked up): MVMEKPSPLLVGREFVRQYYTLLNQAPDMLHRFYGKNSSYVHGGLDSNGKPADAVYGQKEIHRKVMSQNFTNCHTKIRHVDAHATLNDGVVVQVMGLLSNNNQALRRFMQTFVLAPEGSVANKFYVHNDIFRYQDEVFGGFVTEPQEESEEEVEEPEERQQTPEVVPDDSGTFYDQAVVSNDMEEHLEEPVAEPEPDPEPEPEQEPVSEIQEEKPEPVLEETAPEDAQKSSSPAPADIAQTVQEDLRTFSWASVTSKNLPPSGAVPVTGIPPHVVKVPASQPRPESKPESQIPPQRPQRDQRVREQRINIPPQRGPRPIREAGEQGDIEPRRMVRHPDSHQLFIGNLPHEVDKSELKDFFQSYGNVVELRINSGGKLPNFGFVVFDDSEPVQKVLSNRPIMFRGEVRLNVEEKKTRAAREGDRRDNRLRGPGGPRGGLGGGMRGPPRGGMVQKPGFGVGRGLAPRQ
Strand	log2 enrichment
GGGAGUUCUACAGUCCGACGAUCGGACAAGAAUCCUUCAAGAAACAGGAAAAAACUCCUAAAACACCAAAAGGACCUAGUUCUGUAGAAGACAUUAAAGCAAAAAUGCAAGCAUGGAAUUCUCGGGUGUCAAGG	-0.731
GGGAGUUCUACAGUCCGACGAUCCCUCAAGUCCUGUGCUACACAUCGUAUGUACCGAAUCGGGAGGGAGGGGAGGAAAGUAUUAUGUUACGCCGUUCGGAUCUGCACUUCCAGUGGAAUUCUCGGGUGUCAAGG	0.687
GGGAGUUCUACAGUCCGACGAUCUUAGGUGGCUCCAGGAUGUAUUUAACGUGCCCUUGGUCAUCCAGAUGACGGAUGACGAGAAGUAUCUGUGGAAGGACCUGACCCUGGACCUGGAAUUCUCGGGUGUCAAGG	-1.06
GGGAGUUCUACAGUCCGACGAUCCUGUGCUACACAUCGUAUGUACCGAAUCGGGGAAAAAGGGGAAAAAAAGGGGAAAAAGGGGAAAGUAUUAUGUUACGCCGUUCGGAUCUGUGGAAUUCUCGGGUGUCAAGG	0.0555
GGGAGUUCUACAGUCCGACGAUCUGGGACGUGGAUUUUGUUUAUUUUUUUAGCUCAUUUCCAGGGGUGGGAAUUUUUUUUUAAUAUGUGUCAUGAAUAAAGUUGUUUUUGAAAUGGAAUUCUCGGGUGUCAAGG	4.17
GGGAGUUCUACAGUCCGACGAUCCCUGUGCUACACAUCGUAUGUACCGAAUCGGGCCCCCCGGGCCCCCCGGGGCCCCCCGGGGAAAGUAUUAUGUUACGCCGUUCGGAUCUGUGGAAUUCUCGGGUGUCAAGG	-2.11
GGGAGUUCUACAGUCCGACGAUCUCCUCAAGUCCUGUGCUACACAUCGUAUGUACCGAAUCGGGAGGAGGGGAGGAAAGUAUUAUGUUACGCCGUUCGGAUCUGCACUUCCAGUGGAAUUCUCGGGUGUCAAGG	-0.683
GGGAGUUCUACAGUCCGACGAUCUGGGAGGUGCAUUUUGUUUAUUUUUUUAGCUCAUUUCCAGGGGUGGGAAUUUUUUUUUAAUAUGUGUCAUGAAUAAAGUUGUUUUUGAAAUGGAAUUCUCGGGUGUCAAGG	2.64
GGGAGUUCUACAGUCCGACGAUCCACAGACAACACGCACCCACACAGACACAGAGGGAAGGGGUUGGGAUGUGGACAGGGUGCACAGCAGGGCGGGGUAGGACCCCAGCCCCUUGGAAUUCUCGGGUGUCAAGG	-0.334
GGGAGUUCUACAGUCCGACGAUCUAACUUUAGAGGAGGAUCUGAUGGAUACGGCAGUGGACGUGGAUUUGGGGAUGGCUAUAAUGGGUAUGGAGGAGGACCUGGAGGUGGCAAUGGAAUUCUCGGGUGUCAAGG	-1.48
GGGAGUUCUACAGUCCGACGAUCAGUCCUGUGCUACACAUCGUAUGUACCGAAUCGGGUUUUUGGGUGGGUUUUUUUGGGAAAGUAUUAUGUUACGCCGUUCGGAUCUGCACUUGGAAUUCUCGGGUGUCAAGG	0.718
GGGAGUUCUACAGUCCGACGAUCAAGUCCUGUGCUACACAUCGUAUGUACCGAAUCGGGUUUUUGGGAAAGGGAAAGGGAAAGUAUUAUGUUACGCCGUUCGGAUCUGCACUUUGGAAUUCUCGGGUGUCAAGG	0.918
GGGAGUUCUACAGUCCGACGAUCCAAGUCCUGUGCUACACAUCGUAUGUACCGAAUCGGAAAAGGAAAAGGAAAAGGGGAAAGUAUUAUGUUACGCCGUUCGGAUCUGCACUUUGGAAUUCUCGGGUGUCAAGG	-1.93
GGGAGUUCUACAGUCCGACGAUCAAGUCCUGUGCUACACAUCGUAUGUACCGAAUCGGGGAGGGGAGGGGUUUUUGGGGAAAGUAUUAUGUUACGCCGUUCGGAUCUGCACUUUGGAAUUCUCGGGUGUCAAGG	2.3

Sample 3 — method: RNA Bind-n-Seq; form: RNA; sample: in vitro; concentration: not given; reference: input RNA pool; reading: higher = stronger binding
Target: RING finger protein unkempt homolog, zinc fingers 1-6, GST-SBP tag (UNK, Homo sapiens, UniProt Q9C0B0, residues 30-357)
Notes: RNA with constant flanks, human and mouse sites, ends assumed
Construct (chain): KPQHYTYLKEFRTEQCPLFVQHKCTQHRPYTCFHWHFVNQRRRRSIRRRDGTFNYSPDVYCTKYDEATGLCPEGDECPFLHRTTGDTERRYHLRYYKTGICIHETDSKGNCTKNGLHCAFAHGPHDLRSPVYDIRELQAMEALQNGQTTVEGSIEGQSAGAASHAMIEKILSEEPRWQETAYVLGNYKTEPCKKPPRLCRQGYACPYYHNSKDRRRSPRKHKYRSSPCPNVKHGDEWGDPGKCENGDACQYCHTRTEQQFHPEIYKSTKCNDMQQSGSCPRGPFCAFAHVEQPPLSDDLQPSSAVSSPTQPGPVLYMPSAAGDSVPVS
Strand	bound/input enrichment
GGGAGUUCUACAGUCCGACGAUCUCCUGGAACCUGUGACAAAGUCAAUAACAUCCACCCAACUGUCCAUACAAAGACUGAUAAUUCUGUUGCCUCUUCACCAUCUUCAGCCAUUUCCACAGCAACACCUUCUCCUAAGUCCACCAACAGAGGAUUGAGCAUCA	0.313 ratio
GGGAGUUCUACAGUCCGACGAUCAAGUACAAUGAUCCUAUCUAUGUUAAACUAGAGAAGUUAGACAUCAUGAUUCGUCUUGCAUCCCAAGCCAACAUUGCUCAGGUUCUGGCGGAGCUGAAGGAAUAUGCCACUGAAGUUGAUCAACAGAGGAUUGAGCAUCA	0.0962 ratio
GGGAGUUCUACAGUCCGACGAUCAAAUAACAUUGGAAAAUUGGGAGAAGUCUCCUUGGUUUGGAAAAAAAGGACUCUUCAACCUAGCUCACUUUCUUAUCCGGACUGGGAUAUUAAAUAUACGACACAUCCAGGAGUUUAUUGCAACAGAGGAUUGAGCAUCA	0.299 ratio
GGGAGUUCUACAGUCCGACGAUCAAUACAGUUUUUCAUUCUGUUCUUGCUGGGCUAGUGUGUGGUCUUGGAACAUGGUAUUUGCUCCCAAACCGAGUAACCUUGCUGUAUGGCAGCCCUGGGGCGACUGCUGUGCUCUUUGUGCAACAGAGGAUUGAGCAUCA	0.345 ratio
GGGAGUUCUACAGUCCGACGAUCCUAAGGAAAGAAGGGCUAAAGGAUGAGGAAGAGCUCUUUGAUUUUAAAGCUGGAGAAGAAGUACUGGCUCGUUGGACAGACUGUCGCUAUUACCCUGCCAAGAUUGAAGCAAUUAACAAACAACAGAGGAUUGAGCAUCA	0.253 ratio
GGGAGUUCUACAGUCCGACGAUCCGCUCAGAAUAAAAAUUCUUUGUGCAACCUAUGUAAAUGUAAAUAUUCGAGACAUUGAUAAGAUCUAUGUUCGAACAGGUAUCUACCAUGGAGGAGAACCCUUAUGUGACAAUGUGAACACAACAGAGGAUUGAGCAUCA	0.163 ratio
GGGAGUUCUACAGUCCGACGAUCGGGACCGUCAAAAGCGACAAAGCAAAAACAAAGCCACCGCUUCAAGUAACAAAGGUAGACAAUAAUUUGACAGUAGAGAAAGCCACCAAGAAAACAGUUGUUGGGAAGGAGAGUAAACCUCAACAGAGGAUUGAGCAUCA	0.961 ratio
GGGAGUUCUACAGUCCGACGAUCGAUUACAAGGGGCAGAAACUAGCUGAACAGAUGUUUCAGGGGAUCAUUCUUUUUUCUGCAAUAGUUGGGUUUAUCUACGGGUACGUGGCUGAACAGUUUGGGUGGACUGUCUACAUAGUUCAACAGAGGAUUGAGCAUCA	0.575 ratio
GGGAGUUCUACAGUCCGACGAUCUAGUGAAAUUCUCUAGCACUGUAUUUAGAUUCUGGAUUUUUAUAAUUCAUGCUUAAUGUAUUAGACAUUUUUAGCCCAUAAUUAAAACAUUGUUGCUUUUACACAGGUGUAGUUUGGUGCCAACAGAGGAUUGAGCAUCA	39.2 ratio
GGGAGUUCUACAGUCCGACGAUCGAUGAGACUGAGCUUCACUCUUCUGAGAAAGGUUUAAAAGUAGAGGAAAAUAUUCAAAAGCAAAGUCAACAAACAAAGCUUUCUUCAGAUGAUAAAACCGAACGAAAAAGUAAACAUAGGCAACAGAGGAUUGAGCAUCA	0.62 ratio
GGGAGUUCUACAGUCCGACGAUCUAAUAAUGGAAUUGCUUUUUCUUUUGCCUUGUGAUUUUUUUUUGAGGUGAAAUUUAAUUUGUGUAUGUGUGUGUGUGUAGUGUUCUGCCCAUCUGAGUGUCUACUUGUAUCACAUUCCAUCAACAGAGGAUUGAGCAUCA	0.282 ratio

Sample 4 — method: protein binding microarray; form: double-stranded DNA, one strand shown; sample: in vitro; concentration: not given; reference: not given; reading: higher = stronger binding
Target: Histone acetyltransferase KAT6A, winged helix 2, GST fusion (KAT6A, Homo sapiens, UniProt Q92794, residues 85-181)
Notes: 8-mer, flanks averaged, mean of 2 arrays, mostly near background
Residues (chain): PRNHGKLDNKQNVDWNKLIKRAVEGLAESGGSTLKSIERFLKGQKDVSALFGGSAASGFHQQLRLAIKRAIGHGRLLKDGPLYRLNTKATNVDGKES
Strand	E-score
CTAAACAG	-0.075
GACCTTAC	0.0145
GTAACCAC	-0.357
GGCTCGAC	0.105
CTGAACAA	0.0359
CAAGACAG	-0.0946
CTCTAGCA	-0.0334
TGAGGGCA	0.0273
CACAACGC	0.00858
GAACGCTC	-0.139
GCGCTCAA	0.0359
ACTACGGA	-0.154
TACTCCTA	-0.103
CGCGCGCC	0.23
CCACCTCA	-0.123
ATATTTTG	0.174
GGAGTTAA	0.00088
CGGGTAGA	-0.0572
GCACAACC	0.0206
CGATTTGC	0.0421
ACTTTAGG	-0.154
CATGGTGA	0.0253
CCGATTAC	-0.00662
AGACATCA	-0.0522
AGGGACCT	0.0285

Sample 5 — method: protein-binding microarray; form: double-stranded DNA, one strand shown; sample: in vitro; concentration: not given; reading: higher = stronger binding
Target: Protein C-ets-1 (ETS1, Homo sapiens, UniProt P14921, residues 1-441, K379A, full length assumed)
Notes: k-mer, scored over probes, only values ≥0.25
Target sequence (chain): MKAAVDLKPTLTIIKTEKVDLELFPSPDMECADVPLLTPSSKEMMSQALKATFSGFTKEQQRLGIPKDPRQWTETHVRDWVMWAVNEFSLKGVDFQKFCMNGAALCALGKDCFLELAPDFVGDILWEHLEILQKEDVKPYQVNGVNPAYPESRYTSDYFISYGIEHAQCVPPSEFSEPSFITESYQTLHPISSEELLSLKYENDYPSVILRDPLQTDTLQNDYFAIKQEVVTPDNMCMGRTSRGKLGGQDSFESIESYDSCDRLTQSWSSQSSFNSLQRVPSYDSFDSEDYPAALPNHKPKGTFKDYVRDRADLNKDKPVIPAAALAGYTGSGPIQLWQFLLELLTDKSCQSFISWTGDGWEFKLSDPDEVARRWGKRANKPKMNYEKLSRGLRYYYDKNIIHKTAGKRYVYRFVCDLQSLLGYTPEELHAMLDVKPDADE
Strand	E-score
AATACCGG	0.445
ATATGATA	0.323
CGTCCGGC	0.28
CCGGAAGA	0.395
ATGCCGGA	0.323
CCGCAACA	0.294
CCCGGCCG	0.379
CCGGGACC	0.342
CCCGGAAC	0.312
CTGTCGGA	0.292
TGACGGAA	0.294
CCGGCCGG	0.455
GGATGTAA	0.27
TACCGTCA	0.307
ACATGTAT	0.308
AACATACA	0.26
ATAATTGC	0.261
GGATATAA	0.261
GCCGGCGC	0.312
TACCGACA	0.435
CACCGGGG	0.408
AAATGGTA	0.273
CAATACCG	0.294
CCGGGAGG	0.343
CCCATATA	0.254
